Assay results collected from several papers.
A part holds a random share of what one study measured. Substitutions count along the parent as printed.
Chain of UniProt Q00532 (whole entry, looked up): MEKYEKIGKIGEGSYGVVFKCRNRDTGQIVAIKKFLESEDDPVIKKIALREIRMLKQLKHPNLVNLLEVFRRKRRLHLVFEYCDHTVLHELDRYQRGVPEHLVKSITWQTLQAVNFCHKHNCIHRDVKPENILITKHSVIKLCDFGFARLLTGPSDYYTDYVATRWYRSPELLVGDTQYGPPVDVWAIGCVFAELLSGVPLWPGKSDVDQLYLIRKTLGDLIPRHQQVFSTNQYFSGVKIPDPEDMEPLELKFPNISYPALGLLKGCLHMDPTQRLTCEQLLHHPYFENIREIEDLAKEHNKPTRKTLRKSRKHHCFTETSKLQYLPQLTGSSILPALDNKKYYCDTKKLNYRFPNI
Chain of UniProt P37173 (whole entry, looked up): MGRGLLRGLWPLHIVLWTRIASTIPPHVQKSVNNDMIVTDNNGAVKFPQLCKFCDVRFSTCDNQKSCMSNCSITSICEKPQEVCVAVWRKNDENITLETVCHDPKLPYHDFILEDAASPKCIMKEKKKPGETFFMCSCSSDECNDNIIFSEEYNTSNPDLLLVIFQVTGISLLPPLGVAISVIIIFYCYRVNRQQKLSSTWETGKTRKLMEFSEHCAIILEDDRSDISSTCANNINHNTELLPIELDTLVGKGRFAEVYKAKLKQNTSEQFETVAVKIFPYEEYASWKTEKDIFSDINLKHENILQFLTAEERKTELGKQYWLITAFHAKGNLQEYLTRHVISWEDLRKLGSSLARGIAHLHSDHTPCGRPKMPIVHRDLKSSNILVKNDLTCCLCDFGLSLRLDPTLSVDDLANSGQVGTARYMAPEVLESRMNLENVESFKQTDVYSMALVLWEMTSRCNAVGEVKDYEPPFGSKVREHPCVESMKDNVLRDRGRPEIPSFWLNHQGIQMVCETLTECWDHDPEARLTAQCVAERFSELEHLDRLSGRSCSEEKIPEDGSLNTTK
Chain of UniProt Q8IY84 (whole entry, looked up): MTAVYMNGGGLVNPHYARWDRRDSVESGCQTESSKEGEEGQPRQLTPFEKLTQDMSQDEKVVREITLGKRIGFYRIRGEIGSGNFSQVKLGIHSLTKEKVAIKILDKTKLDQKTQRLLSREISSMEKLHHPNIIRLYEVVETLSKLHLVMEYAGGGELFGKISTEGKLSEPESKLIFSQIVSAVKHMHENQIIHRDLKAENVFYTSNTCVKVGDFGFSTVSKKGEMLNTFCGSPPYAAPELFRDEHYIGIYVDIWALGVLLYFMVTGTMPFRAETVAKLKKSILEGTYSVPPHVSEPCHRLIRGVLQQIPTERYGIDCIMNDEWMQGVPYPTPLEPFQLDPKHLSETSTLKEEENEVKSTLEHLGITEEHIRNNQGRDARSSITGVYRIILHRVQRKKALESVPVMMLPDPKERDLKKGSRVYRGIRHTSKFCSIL
Chain of UniProt P08631 (whole entry, looked up): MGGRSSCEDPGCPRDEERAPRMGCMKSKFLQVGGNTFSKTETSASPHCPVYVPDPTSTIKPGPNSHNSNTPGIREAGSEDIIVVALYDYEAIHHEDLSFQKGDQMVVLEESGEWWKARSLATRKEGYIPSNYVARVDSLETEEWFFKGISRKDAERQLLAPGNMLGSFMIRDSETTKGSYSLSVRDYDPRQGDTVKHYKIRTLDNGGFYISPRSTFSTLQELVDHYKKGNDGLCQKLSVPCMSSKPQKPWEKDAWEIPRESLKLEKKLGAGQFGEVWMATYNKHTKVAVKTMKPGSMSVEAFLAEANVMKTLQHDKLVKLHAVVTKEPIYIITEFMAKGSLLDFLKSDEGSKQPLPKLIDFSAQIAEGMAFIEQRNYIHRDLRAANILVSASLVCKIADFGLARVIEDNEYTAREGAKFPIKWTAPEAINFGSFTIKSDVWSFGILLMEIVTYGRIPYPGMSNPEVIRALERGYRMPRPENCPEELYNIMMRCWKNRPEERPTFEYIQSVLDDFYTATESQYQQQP
Chain of UniProt Q9UBE8 (whole entry, looked up): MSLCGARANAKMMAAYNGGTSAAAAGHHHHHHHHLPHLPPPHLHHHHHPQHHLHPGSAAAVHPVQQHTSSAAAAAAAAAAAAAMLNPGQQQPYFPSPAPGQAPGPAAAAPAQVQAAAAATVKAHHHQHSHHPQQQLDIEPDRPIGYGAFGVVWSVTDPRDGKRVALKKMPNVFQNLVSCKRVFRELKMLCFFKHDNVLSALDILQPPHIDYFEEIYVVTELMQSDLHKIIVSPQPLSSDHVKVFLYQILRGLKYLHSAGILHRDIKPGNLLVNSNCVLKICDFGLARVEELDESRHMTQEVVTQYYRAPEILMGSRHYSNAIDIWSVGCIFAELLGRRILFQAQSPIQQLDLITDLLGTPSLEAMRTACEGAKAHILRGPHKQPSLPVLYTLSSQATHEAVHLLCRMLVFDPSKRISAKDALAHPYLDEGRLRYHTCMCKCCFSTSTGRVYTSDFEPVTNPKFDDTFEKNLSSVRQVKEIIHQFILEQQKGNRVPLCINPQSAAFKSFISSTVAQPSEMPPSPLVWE
Chain of UniProt Q00535 (whole entry, looked up): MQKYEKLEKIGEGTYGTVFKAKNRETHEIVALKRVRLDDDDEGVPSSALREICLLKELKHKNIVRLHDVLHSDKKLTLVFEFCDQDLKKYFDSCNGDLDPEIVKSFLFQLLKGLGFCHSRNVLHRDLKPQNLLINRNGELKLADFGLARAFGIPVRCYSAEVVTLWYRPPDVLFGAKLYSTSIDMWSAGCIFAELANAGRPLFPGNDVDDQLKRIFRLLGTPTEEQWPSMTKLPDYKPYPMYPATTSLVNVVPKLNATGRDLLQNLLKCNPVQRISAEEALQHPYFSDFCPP
Chain of UniProt P52564 (whole entry, looked up): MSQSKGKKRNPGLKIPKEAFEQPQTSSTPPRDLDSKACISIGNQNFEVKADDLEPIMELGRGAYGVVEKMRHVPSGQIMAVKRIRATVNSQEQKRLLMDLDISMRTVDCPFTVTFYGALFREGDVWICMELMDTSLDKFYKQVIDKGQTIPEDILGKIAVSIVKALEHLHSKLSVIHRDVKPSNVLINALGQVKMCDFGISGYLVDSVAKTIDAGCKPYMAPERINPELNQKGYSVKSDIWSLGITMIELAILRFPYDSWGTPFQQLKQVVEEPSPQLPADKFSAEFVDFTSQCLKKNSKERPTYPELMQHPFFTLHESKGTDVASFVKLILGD
Chain of UniProt Q96BR1 (whole entry, looked up): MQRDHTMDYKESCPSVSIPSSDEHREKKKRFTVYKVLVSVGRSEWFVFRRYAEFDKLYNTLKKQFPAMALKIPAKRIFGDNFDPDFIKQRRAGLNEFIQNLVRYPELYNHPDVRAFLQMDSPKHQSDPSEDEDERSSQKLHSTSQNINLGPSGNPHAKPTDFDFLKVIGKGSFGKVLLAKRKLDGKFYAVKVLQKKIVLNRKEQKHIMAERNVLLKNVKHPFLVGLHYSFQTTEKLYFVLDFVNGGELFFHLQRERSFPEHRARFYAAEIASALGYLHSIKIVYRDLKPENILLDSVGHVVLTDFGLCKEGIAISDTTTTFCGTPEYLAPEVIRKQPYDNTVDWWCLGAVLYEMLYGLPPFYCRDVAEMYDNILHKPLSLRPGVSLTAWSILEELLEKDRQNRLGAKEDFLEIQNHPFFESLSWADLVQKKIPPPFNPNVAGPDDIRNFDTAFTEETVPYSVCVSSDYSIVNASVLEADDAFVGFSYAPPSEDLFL
Chain of UniProt P22455 (whole entry, looked up): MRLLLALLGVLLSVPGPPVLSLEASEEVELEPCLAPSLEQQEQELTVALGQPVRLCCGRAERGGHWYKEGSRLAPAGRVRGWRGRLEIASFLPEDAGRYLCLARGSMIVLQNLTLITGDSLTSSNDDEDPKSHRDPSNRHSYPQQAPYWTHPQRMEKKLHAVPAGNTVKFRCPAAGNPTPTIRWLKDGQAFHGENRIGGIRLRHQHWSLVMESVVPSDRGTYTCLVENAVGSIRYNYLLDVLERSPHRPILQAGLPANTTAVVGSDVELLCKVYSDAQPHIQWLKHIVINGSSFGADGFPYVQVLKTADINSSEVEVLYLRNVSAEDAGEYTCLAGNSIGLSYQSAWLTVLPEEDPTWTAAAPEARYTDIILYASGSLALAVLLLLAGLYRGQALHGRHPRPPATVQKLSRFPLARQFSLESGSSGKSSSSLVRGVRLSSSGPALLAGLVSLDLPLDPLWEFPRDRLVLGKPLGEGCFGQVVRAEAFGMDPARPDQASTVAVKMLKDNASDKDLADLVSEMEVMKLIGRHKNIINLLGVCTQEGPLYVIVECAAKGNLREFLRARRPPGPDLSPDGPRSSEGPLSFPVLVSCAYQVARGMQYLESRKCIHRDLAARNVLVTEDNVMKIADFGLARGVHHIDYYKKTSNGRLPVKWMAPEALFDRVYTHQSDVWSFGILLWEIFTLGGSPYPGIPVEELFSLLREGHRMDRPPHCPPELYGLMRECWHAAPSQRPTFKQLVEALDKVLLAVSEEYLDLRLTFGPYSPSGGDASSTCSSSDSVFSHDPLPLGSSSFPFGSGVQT
Chain of UniProt P42680 (whole entry, looked up): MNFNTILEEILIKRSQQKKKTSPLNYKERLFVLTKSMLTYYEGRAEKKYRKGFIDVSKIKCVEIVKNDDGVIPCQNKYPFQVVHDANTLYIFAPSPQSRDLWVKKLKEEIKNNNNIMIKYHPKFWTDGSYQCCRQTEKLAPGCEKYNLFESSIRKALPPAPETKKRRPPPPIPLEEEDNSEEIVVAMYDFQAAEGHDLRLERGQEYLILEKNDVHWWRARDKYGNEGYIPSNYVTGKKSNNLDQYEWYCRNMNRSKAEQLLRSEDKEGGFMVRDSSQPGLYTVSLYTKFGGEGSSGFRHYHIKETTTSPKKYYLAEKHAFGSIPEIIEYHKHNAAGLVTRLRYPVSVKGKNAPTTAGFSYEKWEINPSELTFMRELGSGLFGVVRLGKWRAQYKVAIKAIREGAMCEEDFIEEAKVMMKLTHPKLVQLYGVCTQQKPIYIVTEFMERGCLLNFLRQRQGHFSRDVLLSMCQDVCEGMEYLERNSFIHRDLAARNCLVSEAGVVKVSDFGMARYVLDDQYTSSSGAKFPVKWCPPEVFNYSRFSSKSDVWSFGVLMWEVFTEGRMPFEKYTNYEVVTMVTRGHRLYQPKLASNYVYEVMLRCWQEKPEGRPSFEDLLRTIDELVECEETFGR

Set 1
Compound: Cc1cc(C)c(-n2ccn3nc(-c4cccnc4)cc23)cc1NC(=O)c1cc(C#N)cc(S(F)(F)(F)(F)F)c1
Method: competition with immobilised ligand
Tested at: 0.1 µM
target	read-out	remaining binding [%]
TGFBR2 (Homo sapiens, UniProt P37173)	cell-free assay	78.6
CDKL1 (Homo sapiens, UniProt Q00532)	binding	77.4
NIM1K (Homo sapiens, UniProt Q8IY84)	cell-free assay	98.9
CDK17 (Homo sapiens, UniProt Q00537)	cell-free assay	99.3
CDC42BPB (Homo sapiens, UniProt Q9Y5S2)	cell-free assay	95.5
TEC (Homo sapiens, UniProt P42680)	binding	88.4
NLK (Homo sapiens, UniProt Q9UBE8)	cell-free assay	100
SGK3 (Homo sapiens, UniProt Q96BR1)	cell-free assay	81.5
CDK5 (Homo sapiens, UniProt Q00535)	cell-free assay	95.6
FLT3 (Homo sapiens, UniProt P36888, N841I)	cell-free assay	95.3
FGFR4 (Homo sapiens, UniProt P22455)	cell-free assay	99.4
MAP2K6 (Homo sapiens, UniProt P52564)	cell-free assay	100
ACVR1B (Homo sapiens, UniProt P36896)	cell-free assay	100
MAPK8 (Homo sapiens, UniProt P45983)	cell-free assay	76.8
HCK (Homo sapiens, UniProt P08631)	cell-free assay	72.1

Set 2
Target: OGT, full length, His-tagged (human)
Method: phage display, sequencing
Matrix: in vitro
Tested at: 1 µg OGT
Setting: single substitutions, 15-mer displayed peptide, unchanged parent 5.27
Relative to: input library
Reading: higher = stronger binding
Parent: peptide; GDFPVMFMPKYSIIY
Change	fold enrichment
GDFPVMIMPKYSIIY [F7I]	1.08 fold
TDFPVMFMPKYSIIY [G1T]	5.39 fold
GDFPLMFMPKYSIIY [V5L]	11.6 fold
GDFPVMFMPKYSITY [I14T]	2.12 fold
GDFPVMFMPKYSWIY [I13W]	1.41 fold
GDFPVMFMPKYSIGY [I14G]	0.621 fold
GDFPVMNMPKYSIIY [F7N]	0.746 fold
GDFPVMFMPKYSDIY [I13D]	0.631 fold

Set 3
Target: Histone acetyltransferase KAT6A, both winged helices, GST fusion (KAT6A, Homo sapiens, UniProt Q92794, residues 1-181)
Method: protein binding microarray
Form: double-stranded DNA, one strand shown
Matrix: in vitro
Tested at: not given
Setting: 8-mer, flanks averaged, mean of 2 arrays, mostly near background
Relative to: not given
Reading: higher = stronger binding
Construct (chain): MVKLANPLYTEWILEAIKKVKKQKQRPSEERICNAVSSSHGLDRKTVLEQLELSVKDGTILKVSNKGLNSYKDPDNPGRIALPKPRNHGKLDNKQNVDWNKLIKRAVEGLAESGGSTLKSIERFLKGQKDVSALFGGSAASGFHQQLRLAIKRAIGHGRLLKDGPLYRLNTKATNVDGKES
Strand	E-score
TCCCTTAA	-0.144
AGGTCCTC	-0.103
AAATCAGG	-0.163
GACGGATC	0.171
AGCTGATA	-0.117
GACACGGC	0.208
AAGTCAGG	-0.126
GCTCCAAC	0.0496

Set 4
Cell line: mouse MPNST tumor cells
Method: high-content nuclear imaging
Item: cell number
Tested at: 10 µM
Time: 12 h
Setting: mean of 2 replicates
Relative to: plate mean
Reading: higher = more cells
Compound	nuclei count
Cc1c(Nc2ncccc2C(=O)O)cccc1C(F)(F)F	0.184 z-score
N=C(N=C(N)N)N1CCOCC1	0.439 z-score
CNCCCC1(c2ccccc2)OC(C)(C)c2ccccc21 (stereo not drawn)	3.72 z-score

Single results of other studies
Structure (SMILES)	test	test system	setting	quantity	result
O=C(NCC1=COCCO1)NC1CCc2c1ccc(Cl)c2Cl (stereo not drawn)		human, microsomes or S9	2 µM, 0.5 h	remaining compound	27.3%
CC(C)n1cnc(-c2ccc(F)cc2)c1-c1ncc(C(=O)Nc2ccc(N3CCN(C)CC3)cc2)[nH]1	phase 2a trial	idiopathic pulmonary fibrosis patients	30 mg once daily, grade 1	patients with increased interferon-gamma	0%

Some of these lines once more (set 1):
target	read-out	remaining binding [%]
MAP2K6 (Homo sapiens, UniProt P52564)	cell-free assay	100
ACVR1B (Homo sapiens, UniProt P36896)	cell-free assay	100
MAPK8 (Homo sapiens, UniProt P45983)	cell-free assay	76.8
HCK (Homo sapiens, UniProt P08631)	cell-free assay	72.1
